Assay results from different studies.
A part holds a random share of what one study measured. “And” joins repeats or separate records; there may be more than shown.
UniProt P00519, sequence (whole entry, unmodified, looked up): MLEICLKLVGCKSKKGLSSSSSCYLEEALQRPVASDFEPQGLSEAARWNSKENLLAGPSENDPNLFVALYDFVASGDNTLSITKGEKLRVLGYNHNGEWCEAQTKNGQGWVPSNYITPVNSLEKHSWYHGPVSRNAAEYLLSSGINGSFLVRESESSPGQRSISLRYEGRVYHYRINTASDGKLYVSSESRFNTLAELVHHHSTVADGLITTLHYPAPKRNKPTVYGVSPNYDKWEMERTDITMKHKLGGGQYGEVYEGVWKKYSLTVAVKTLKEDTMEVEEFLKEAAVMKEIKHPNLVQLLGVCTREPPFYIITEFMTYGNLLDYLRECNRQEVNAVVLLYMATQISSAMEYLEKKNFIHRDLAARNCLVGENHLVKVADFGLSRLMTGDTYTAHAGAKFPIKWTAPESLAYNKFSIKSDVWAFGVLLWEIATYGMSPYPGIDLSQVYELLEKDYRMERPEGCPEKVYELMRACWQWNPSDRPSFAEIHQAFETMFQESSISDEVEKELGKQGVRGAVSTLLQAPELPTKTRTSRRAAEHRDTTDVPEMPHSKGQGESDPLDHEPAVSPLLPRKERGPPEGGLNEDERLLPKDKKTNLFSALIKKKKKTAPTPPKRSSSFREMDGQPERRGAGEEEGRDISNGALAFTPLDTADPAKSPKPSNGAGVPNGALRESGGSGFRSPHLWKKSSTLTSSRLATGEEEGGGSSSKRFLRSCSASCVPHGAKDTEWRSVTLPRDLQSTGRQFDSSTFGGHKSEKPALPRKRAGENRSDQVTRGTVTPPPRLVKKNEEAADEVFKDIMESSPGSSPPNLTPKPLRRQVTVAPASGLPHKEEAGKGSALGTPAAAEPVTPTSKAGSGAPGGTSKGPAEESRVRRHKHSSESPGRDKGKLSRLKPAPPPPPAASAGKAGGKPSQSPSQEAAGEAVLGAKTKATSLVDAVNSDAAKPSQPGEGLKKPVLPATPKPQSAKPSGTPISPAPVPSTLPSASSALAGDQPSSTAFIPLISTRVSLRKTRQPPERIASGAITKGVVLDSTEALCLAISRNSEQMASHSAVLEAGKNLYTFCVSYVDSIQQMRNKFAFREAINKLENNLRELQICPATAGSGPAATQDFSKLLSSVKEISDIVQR

Study 1
Target: Serine/threonine-protein kinase BRSK1 (BRSK1, Homo sapiens, UniProt Q8TDC3)
Read-out: enzyme activity
Action: inhibitor
Concentration: 0.5 µM
Baseline: control
Residues (Q8TDC3 1-778): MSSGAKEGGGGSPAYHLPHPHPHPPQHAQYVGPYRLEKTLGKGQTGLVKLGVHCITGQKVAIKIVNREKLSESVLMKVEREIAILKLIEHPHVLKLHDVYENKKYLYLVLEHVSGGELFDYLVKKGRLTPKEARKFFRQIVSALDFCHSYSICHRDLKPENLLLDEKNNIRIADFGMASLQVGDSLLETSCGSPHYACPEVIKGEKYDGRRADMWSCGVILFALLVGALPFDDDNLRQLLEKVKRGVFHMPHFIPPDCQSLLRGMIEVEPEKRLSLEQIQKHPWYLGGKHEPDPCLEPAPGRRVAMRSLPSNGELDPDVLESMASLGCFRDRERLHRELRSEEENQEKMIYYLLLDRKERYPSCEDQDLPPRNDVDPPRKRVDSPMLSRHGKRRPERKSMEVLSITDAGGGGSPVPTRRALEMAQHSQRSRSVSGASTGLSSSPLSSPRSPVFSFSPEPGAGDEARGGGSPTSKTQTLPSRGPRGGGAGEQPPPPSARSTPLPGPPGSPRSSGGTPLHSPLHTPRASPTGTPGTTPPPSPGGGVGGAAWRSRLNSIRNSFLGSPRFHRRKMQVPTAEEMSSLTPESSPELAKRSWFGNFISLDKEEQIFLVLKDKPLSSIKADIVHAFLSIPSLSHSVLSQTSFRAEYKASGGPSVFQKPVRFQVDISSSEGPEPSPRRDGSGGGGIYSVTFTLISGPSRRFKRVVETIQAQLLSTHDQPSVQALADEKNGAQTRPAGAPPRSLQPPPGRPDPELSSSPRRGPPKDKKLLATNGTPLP
With `O=C1c2ccccc2-c2n[nH]c3cccc1c23` the remaining activity was 56.9%.
For `O=C1C(Cl)=C(N2C(=O)CCC2=O)C(=O)c2ccccc21`, the remaining activity was 96.9%.
With `CCN(CC)C(=O)c1ccc(Nc2nc(OCC3CCCCC3)c3[nH]cnc3n2)cc1` the remaining activity was 84%.
With `CN(C)C[C@H]1CCn2c(c(C3=C(c4cn(C)c5ccccc45)C(=O)NC3=O)c3ccccc32)C1` the remaining activity was 101%.
`Cn1nc2c3c(cccc31)C(=O)c1ccccc1-2` gave a remaining activity of 92.5%.
The remaining activity of `Cc1cc2ncc(-c3ccccc3)nc2cc1C` is reported as 95.1%.
`c1ccc(-c2[nH]ncc2-c2ccnc3ccccc23)nc1` gave a remaining activity of 99%.
With `COc1cc2ncnc(Nc3ccc(O)c(Br)c3)c2cc1OC` the remaining activity was 81.6%.
`Ic1cccc(CSc2nnc(-c3ccncc3)o2)c1` gave a remaining activity of 101%.
`CCN(CC)CCNC(=O)c1c(C)[nH]c(/C=C2\C(=O)Nc3ccc(Cl)cc32)c1C` gave a remaining activity of 36.5%.
`N#Cc1c(NC(=O)c2cccc3ccccc23)sc2c1CCCC2` has a remaining activity of 97%.
For `Cc1cn(-c2cc(NC(=O)c3ccc(C)c(Nc4nccc(-c5cccnc5)n4)c3)cc(C(F)(F)F)c2)cn1`, the remaining activity was 98%.
`c1ccc(-c2cnc(Nc3ccc(OCCN4CCCC4)cc3)s2)cc1` gave a remaining activity of 97.6%.
`C[C@@H]1CCN(C(=O)CC#N)C[C@@H]1N(C)c1ncnc2[nH]ccc12` gave a remaining activity of 102%.
`CN([C@@H](Cc1ccc(OS(=O)(=O)c2cccc3cnccc23)cc1)C(=O)N1CCN(c2ccccc2)CC1)S(=O)(=O)c1cccc2cnccc12` gave a remaining activity of 96.4%.
The remaining activity of `Cc1nc2cc3nc(-c4cccs4)cnc3cc2n1C` is reported as 98.7%.
The remaining activity of `N#C/C(=C\c1ccc(O)c(O)c1)C(=O)NCc1ccccc1` is reported as 104%.
`CCN(CC)CCNC(=O)c1c(C)[nH]c(/C=C2\C(=O)Nc3ccc(F)cc32)c1C` gave a remaining activity of 45.1%.
`COc1cc2ncnc(Nc3cccc(Cl)c3)c2cc1OC` gave a remaining activity of 93.1%.
For `CCOc1nc(NC(=O)Cc2cc(OC)ccc2OC)cc(N)c1C#N`, the remaining activity was 95.7%.
`O=C(Nc1cccc(Nc2nccc(Nc3cccc(C(F)(F)F)c3)n2)c1)C1CC1` has a remaining activity of 97.1%.
`COc1cc2c(cc1OC)-c1[nH]nc(Nc3cccc(F)c3)c1C2` has a remaining activity of 89.3%.
`Nc1cccc(-c2cc3c(Oc4cccc(O)c4)ncnc3[nH]2)c1` gave a remaining activity of 83.1%.
For `O=C(NC(NC(=S)Nc1ccc(F)c([N+](=O)[O-])c1)C(Cl)(Cl)Cl)C(c1ccccc1)c1ccccc1` (stereo not drawn), the remaining activity was 98.3%.
The remaining activity of `O=c1cc(-c2cccc3c2Sc2ccccc2S3)oc(N2CCOCC2)c1` is reported as 98.2%.

Study 2
Cell line: HaCaT
Concentration: 100 µM
Time: 18 h
For `CC(=O)Oc1ccc(C(c2ccc(OC(C)=O)cc2)c2ccccn2)cc1`, the viability was 17.4%.
`NC[C@@H]1O[C@H](O[C@H]2[C@@H](O)[C@H](O[C@@H]3[C@@H](O)[C@H](N)C[C@H](N)[C@H]3O[C@H]3O[C@H](CN)[C@@H](O)[C@H](O)[C@H]3N)O[C@@H]2CO)[C@H](N)[C@@H](O)[C@@H]1O` has a viability of 124%.
The viability of `Cc1ncc([N+](=O)[O-])n1C` is reported as 90.2%.
`C[C@@H]1O[C@@H](OC[C@H]2O[C@@H](Oc3c(-c4ccc(OCCO)c(OCCO)c4)oc4cc(OCCO)cc(O)c4c3=O)[C@H](O)[C@@H](O)[C@@H]2O)[C@H](O)[C@H](O)[C@H]1O` has a viability of 96.5%.
The viability of `O=C(O)C1=CO[C@@H](O[C@@H]2O[C@H](CO)[C@@H](O)[C@H](O)[C@H]2O)[C@@H]2C(CO)=CC[C@H]12` is reported as 108%.
With `COc1nc2ccc(Br)cc2cc1[C@@H](c1ccccc1)[C@@](O)(CCN(C)C)c1cccc2ccccc12` the viability was 40.8%.
With `CC1(C)[C@@H](OC(=O)CCC(=O)O)CC[C@]2(C)[C@H]3C(=O)C=C4[C@@H]5C[C@@](C)(C(=O)O)CC[C@]5(C)CC[C@@]4(C)[C@]3(C)CC[C@@H]12` the viability was 98.1%.
For `C=C1[C@H](CO)[C@@H](O)C[C@@H]1n1cnc2c(=O)[nH]c(N)nc21`, the viability was 107%.
With `C[C@@H](NCCc1ccc(O)cc1)[C@@H](O)c1ccc(O)cc1` (racemic) the viability was 111%.
The viability of `C[C@@H]1CC(=O)NN=C1c1ccc(NN=C(C#N)C#N)cc1` is reported as 96.3%.

Study 3
Cell line: mouse MPNST tumor cells
Method: high-content nuclear imaging
Measured: cell number
Concentration: 10 µM
Time: 12 h
Notes: mean of 2 replicates
Baseline: plate mean
Reading: higher = more cells
`CC1=C(/C=C/C(C)=C/C=C/C(C)=C\C(=O)O)C(C)(C)CCC1` has a nuclei count of -1.83 z-score.
The nuclei count of `NCCC(O)(P(=O)(O)O)P(=O)(O)O` is reported as 1.21 z-score.
The nuclei count of `CC(=O)OCC(CCn1cnc2cnc(N)nc21)COC(C)=O` is reported as 1.14 z-score.
For `Cc1ccc(S(=O)(=O)n2c(N)nc3ccccc32)cc1`, the nuclei count was 0.336 z-score.
`COc1ccc(CC2NCCc3c2[nH]c2ccc(C)cc32)c(Cl)c1OC` (stereo not drawn) gave a nuclei count of 1.75 z-score.
For `Cc1cc(-c2nc(-c3ccc(OC(F)(F)F)cc3)no2)nn1Cc1ccnc(N2CCN(C3CC3)CC2)c1`, the nuclei count was -0.962 z-score.
With `CCN(CC)C(=O)c1ccc(O)c(OC)c1` the nuclei count was 1.02 z-score.
The nuclei count of `O=C1c2ccccc2C(Cc2ccnc(F)c2)(Cc2ccnc(F)c2)c2ccccc21` is reported as -0.836 z-score.
With `O=C1Nc2ccccc2C12OCC1(CO2)COC2(OC1)C(=O)Nc1ccccc12` (stereo not drawn) the nuclei count was 1.94 z-score.
`CO/N=C(\C(=O)N[C@@H]1C(=O)N2C(C(=O)OC(C)OC(C)=O)=C(COC(N)=O)CS[C@H]12)c1ccco1` (stereo partly drawn) has a nuclei count of 1.76 z-score.
For `COC(=O)C(NC(=O)c1cc(-c2ccccc2)nc2ccccc12)c1ccccc1` (stereo not drawn), the nuclei count was 1.05 z-score.
For `CC(C)(C)NC(=O)CN1CCC(CNC(=O)c2cc(F)cc(Cl)c2)CC1`, the nuclei count was 0.749 z-score.
With `NS(=O)(=O)c1cc2c(cc1Cl)N=C(CSCc1ccccc1)NS2(=O)=O` the nuclei count was 2.57 z-score.

Study 4
SMILES: CC(=O)N[C@@H](Cc1c[nH]c2ccccc12)C(=O)N[C@@H](CCC(=O)C=[N+]=[N-])C(=O)OC(C)C
Route: subcutaneous
Dose: 0.3 mg/kg/day DON equivalent
Time: 5 days
Reading: higher = more metabolite
UPLC-MS/MS metabolomics, measured: daidzein; EL4, C57BL/6 CES1-/- mice, EL4 tumour, tumour — “metabolite peak area”: 70000 a.u. and 63200 a.u. and 28500 a.u. and 24100 a.u.
It gave 241000 a.u. and 118000 a.u. and 59100 a.u. and 223000 a.u. and 147000 a.u. for “metabolite peak area” (UPLC-MS/MS, measured: ribulose/xylulose 5-phosphate; C57BL/6 CES1-/- mice, EL4 tumour).
For UPLC-MS/MS, measured: xanthosine; C57BL/6 CES1-/- mice, EL4 tumour: “metabolite peak area” read 705000 a.u. and 1.97e+06 a.u. and 2.9e+06 a.u. and 2.5e+06 a.u. and 325000 a.u. and 1.26e+06 a.u.
For UPLC-MS/MS metabolomics, measured: formiminoglutamate; EL4, C57BL/6 CES1-/- mice, EL4 tumour, tumour: “metabolite peak area” read 221000 a.u. and 225000 a.u. and 350000 a.u. and 216000 a.u. and 302000 a.u. and 272000 a.u.
The “metabolite peak area” was 1.78e+06 a.u. and 4.19e+06 a.u. and 4.02e+06 a.u. and 3.83e+06 a.u. and 3.36e+06 a.u. and 2.64e+06 a.u. (UPLC-MS/MS, measured: thymidine; C57BL/6 CES1-/- mice, EL4 tumour).
It gave 1.59e+06 a.u. and 1.34e+06 a.u. and 1.38e+06 a.u. and 980000 a.u. and 1.32e+06 a.u. and 1.53e+06 a.u. for “metabolite peak area” (UPLC-MS/MS, measured: dGMP; C57BL/6 CES1-/- mice, EL4 tumour).
UPLC-MS/MS metabolomics, measured: dehydroascorbate; EL4, C57BL/6 CES1-/- mice, EL4 tumour, tumour — “metabolite peak area”: 8.6e+06 a.u. and 5.08e+06 a.u. and 8.49e+06 a.u. and 7.43e+06 a.u. and 7.14e+06 a.u. and 7.47e+06 a.u.
The “metabolite peak area” was 7.18e+06 a.u. and 1.15e+07 a.u. and 9.89e+06 a.u. and 5.94e+06 a.u. and 7.07e+06 a.u. and 3.65e+06 a.u. (UPLC-MS/MS metabolomics, measured: 2'-CMP; EL4, C57BL/6 CES1-/- mice, EL4 tumour, tumour).

Mixed results
With `N#CC1(c2ccccn2)CCN(Cc2cc(C(=O)O)c(=O)n3ccccc23)CC1` the remaining binding was 100% (Tyrosine-protein kinase ABL1, phosphorylated (ABL1, Homo sapiens, UniProt P00519, E255K); binding, competition with immobilised ligand; 1 µM).

For quick reference, copied from above (study 1):
`CN([C@@H](Cc1ccc(OS(=O)(=O)c2cccc3cnccc23)cc1)C(=O)N1CCN(c2ccccc2)CC1)S(=O)(=O)c1cccc2cnccc12` gave a remaining activity of 96.4%.
The remaining activity of `Cc1nc2cc3nc(-c4cccs4)cnc3cc2n1C` is reported as 98.7%.
The remaining activity of `N#C/C(=C\c1ccc(O)c(O)c1)C(=O)NCc1ccccc1` is reported as 104%.
`CCN(CC)CCNC(=O)c1c(C)[nH]c(/C=C2\C(=O)Nc3ccc(F)cc32)c1C` gave a remaining activity of 45.1%.
`COc1cc2ncnc(Nc3cccc(Cl)c3)c2cc1OC` gave a remaining activity of 93.1%.
For `CCOc1nc(NC(=O)Cc2cc(OC)ccc2OC)cc(N)c1C#N`, the remaining activity was 95.7%.
`O=C(Nc1cccc(Nc2nccc(Nc3cccc(C(F)(F)F)c3)n2)c1)C1CC1` has a remaining activity of 97.1%.
`COc1cc2c(cc1OC)-c1[nH]nc(Nc3cccc(F)c3)c1C2` has a remaining activity of 89.3%.
`Nc1cccc(-c2cc3c(Oc4cccc(O)c4)ncnc3[nH]2)c1` gave a remaining activity of 83.1%.
